Measurements of several laboratories.
± gives the spread as reported. Converted amounts (≈) assume the structure as drawn.
Chain of UniProt P50052 (whole entry, unmodified, looked up): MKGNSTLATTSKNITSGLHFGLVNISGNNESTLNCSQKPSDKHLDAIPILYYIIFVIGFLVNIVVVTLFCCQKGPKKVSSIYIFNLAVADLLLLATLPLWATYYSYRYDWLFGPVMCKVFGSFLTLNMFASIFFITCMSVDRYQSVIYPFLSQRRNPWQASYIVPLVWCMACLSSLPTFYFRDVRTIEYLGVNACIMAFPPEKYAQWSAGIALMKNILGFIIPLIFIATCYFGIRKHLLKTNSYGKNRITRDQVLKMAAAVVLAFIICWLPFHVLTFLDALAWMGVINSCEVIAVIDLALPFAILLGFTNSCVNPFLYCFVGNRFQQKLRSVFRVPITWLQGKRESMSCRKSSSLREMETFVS

CO[C@@H]1[C@H](O)[C@@H](COP(=O)(O)OP(=O)([O-])C(Cl)(Cl)P(=O)(O)OP(=O)(O)OC[C@H]2O[C@@H](n3cnc4c(=O)[nH]c(N)nc43)[C@H](O)[C@@H]2O)O[C@H]1n1c[n+](C)c2c(O)nc(N)nc21
relative translation efficiency (rabbit reticulocyte lysate; 1 h, luciferase mRNA capped with compound; reference: m7GpppG-capped mRNA): 1.71 ± 0.25

CCCCCCCCN(CCC(=O)Nc1ccccc1)C(=O)c1ccccn1
senescence-associated β-galactosidase activity (HGPS patient fibroblasts; 2 µM, 15 days; reference: untreated): decreased

[64Cu+2].c1ccc(CNCc2ccc(CN3CCCN4CCNCCCN(CC4)CC3)cc2)nc1
tissue uptake (CXCR4; NOD/SCID mouse, U87 and U87-stb-CXCR4 xenografts, lungs; iv, 480 min, ex vivo): 6.1 ± 1.29 %ID/g

CCCc1nc2ccc(N(Cc3ccco3)C(=O)c3ccccc3)cc2c(=O)n1Cc1ccc(-c2ccccc2-c2nnn[nH]2)cc1
Ki (Type-2 angiotensin II receptor (AGTR2, Homo sapiens, UniProt P50052, R182K); ligand displacement, radioligand; cell membranes): 6.76 nM

CCCCC/C=C/C(=O)CCc1ccc(O)c(OC)c1
IC50 (mAb 4-AT4; antibody binding, indirect competitive ELISA; with: coating antigen hapten 5-OVA): 0.0196 µg/mL (≈ 0.0711 µM)

CO[C@@H]1[C@H](O)[C@@H](COP(=O)(O)OP(=O)([S-])OP(=O)(S)OC[C@H]2O[C@@H](n3cnc4c(=O)[nH]c(N)nc43)[C@H](O)[C@@H]2O)O[C@H]1n1c[n+](C)c2c(O)nc(N)nc21 (mixture of isomers)
relative translation efficiency (rabbit reticulocyte lysate; analog-capped luciferase mRNA; reference: m7GpppG-capped mRNA): 3.16 ± 0.76

O=C(O)c1ccc(/C=C2\SC(=S)N(Cc3cccc(C(F)(F)F)c3)C2=O)cc1
noncanonical NLRP3 activation (mouse BMDM; concentration not given, with: cytosolic LPS): inhibited

C[n+]1cn(C2OC(COP(=O)(O)OP(=O)([O-])OP(=O)(O)OCC3OC(n4cnc5c(=O)[nH]c(N)nc54)C(O)C3O)C(O)C2O)c2nc(NCc3ccccc3)[nH]c(=O)c21 (stereo not drawn)
relative translation efficiency (cap-dependent translation; rabbit reticulocyte lysate; reference: m7GpppG-capped mRNA): 3.52 ± 0.82

CO[C@@H]1[C@H](O)[C@@H](COP(=O)(O)OP(=O)([O-])C(F)(F)P(=O)(O)OP(=O)(O)OC[C@H]2O[C@@H](n3cnc4c(=O)[nH]c(N)nc43)[C@H](O)[C@@H]2O)O[C@H]1n1c[n+](C)c2c(O)nc(N)nc21
relative translation efficiency (rabbit reticulocyte lysate; 1 h, luciferase mRNA capped with compound; reference: m7GpppG-capped mRNA): 1.57 ± 0.1

C=C1CC[C@H](OCCCNC(=O)CCOCCOCCOCCOCCOCCOCCOCCOCCOCCOCCOCCOCCOCCOCCOCCOCCOCCOCCOCCOCCOCCOCCOCCOCCOCCOCCOCCOCCOCCOCCOCCOCCOCCOCCOCCOCCNC(=O)CCN2C(=O)CC(SC[C@H](NC(=O)[C@H](Cc3ccccc3)NC(=O)[C@H](CC(N)=O)NC(=O)[C@H](Cc3c[nH]cn3)NC(=O)[C@@H](NC(=O)[C@H](CC(=O)O)NC(=O)[C@H](CCC(N)=O)NC(=O)[C@H](CC(C)C)NC(=O)[C@H](CCCCN)NC(=O)[C@H](CCCCN)NC(=O)[C@H](CCCNC(=N)N)NC(=O)[C@H](CC(C)C)NC(=O)[C@H](Cc3c[nH]c4ccccc34)NC(=O)[C@H](CCC(=O)O)NC(=O)[C@@H](NC(=O)[C@H](CCCNC(=N)N)NC(=O)[C@H](CCC(=O)O)NC(=O)[C@H](CCSC)NC(=O)[C@H](CO)NC(=O)[C@H](CC(N)=O)NC(=O)[C@H](CC(C)C)NC(=O)[C@H](Cc3c[nH]cn3)NC(=O)[C@H](CCCCN)NC(=O)CNC(=O)[C@H](CC(C)C)NC(=O)[C@H](CC(N)=O)NC(=O)[C@H](Cc3c[nH]cn3)NC(=O)[C@H](CCSC)NC(=O)[C@H](CC(C)C)NC(=O)[C@H](CCC(N)=O)NC(=O)[C@@H](NC(=O)[C@H](CCC(=O)O)NC(=O)[C@H](CO)NC(=O)[C@@H](NC(=O)[C@@H](N)CO)C(C)C)[C@@H](C)CC)C(C)C)C(C)C)C(N)=O)C2=O)C/C1=C/C=C1\CCC[C@]2(C)[C@@H]([C@H](C)CCCC(C)(C)O)CC[C@@H]12 (stereo partly drawn)
dose-normalized Cmax (Sprague Dawley rat; subcutaneous, 3 µg/kg daily, 89 days; reference: 1 µg/kg dose): 0.99

CC[C@H](C)[C@@H]1NC(=O)[C@H](Cc2cn(CCc3c(C)[nH]c4cc(Cl)cc(Cl)c34)nn2)NC(=O)[C@@H](CC(N)=O)NC(=O)[C@H](CCCNC(=N)N)NC(=O)[C@H](Cc2ccccc2)NC(=O)[C@@H](CC(C)C)NC(=O)[C@H](C)NC(=O)c2cc3cc(c2)C(=O)NC[C@@H](C(=O)N[C@@H](CCCCN)C(N)=O)NC(=O)[C@H](CCCNC(=N)N)NC(=O)[C@H](CCCNC(=N)N)NC(=O)[C@H](CCCNC(=N)N)NC(=O)[C@H](CCCNC(=N)N)NC(=O)[C@H](Cc2ccc4ccccc4c2)NC(=O)[C@H](Cc2ccccc2)NC(=O)[C@H](CCCCNC3=O)NC(=O)[C@H](CC(=O)O)NC1=O
caspase-3 activity (H1299; immunostaining flow cytometry; 20 µM, 6 h; reference: untreated): 1.3 fold

Cc1csc(CCCNc2nc3c(c(=O)[nH]2)[n+](C)cn3C2OC(COP(=O)(O)OP(=O)([O-])OP(=O)(O)OCC3OC(n4cnc5c(=O)[nH]c(N)nc54)C(O)C3O)C(O)C2O)n1 (stereo not drawn)
relative inhibitory potency (cap-dependent translation, inhibitor; rabbit reticulocyte lysate; concentration not given; reference: m7GpppG): 4.8

COc1ccc2c(c1)C(C)(C)C(/C=C/C1=C(Oc3ccc(C(=O)NCCCCOc4cc(CN(Cc5ccccn5)Cc5ccccn5)cc(CN(Cc5ccccn5)Cc5ccccn5)c4)cc3)C(=C/C=C3/N(CCCCS(=O)(=O)[O-])c4ccc(OC)cc4C3(C)C)CCC1)=[N+]2CCCCS(=O)(=O)[O-].O=[N+]([O-])[O-].O=[N+]([O-])[O-].[99Tc+].[C-]#[O+].[C-]#[O+].[C-]#[O+].[Zn+2]
bound activity (Staphylococcus aureus; bacterial binding, gamma counting; concentration not given, 10 min; reference: total): 15 ± 2.1%

C[n+]1cn(C2OC(COP(=O)([O-])OP(=O)(O)OP(=O)(O)OCC3OC(n4cnc5c(=O)[nH]c(N)nc54)C(O)C3O)C(O)C2O)c2nc(NCc3cc(-c4ccccc4)no3)[nH]c(=O)c21 (stereo not drawn)
relative inhibitory potency (cap-dependent translation, inhibitor; rabbit reticulocyte lysate; concentration not given; reference: m7GpppG): 15.7 fold

COc1cc(CCC(C)=O)ccc1O
IC50 (mAb 4-AT4; antibody binding, indirect competitive ELISA; with: coating antigen hapten 5-OVA): > 4 µg/mL

C[n+]1cn(C2OC(COP(=O)(O)OP(=O)([O-])OP(=O)(O)OCC3OC(n4cnc5c(=O)[nH]c(N)nc54)C(O)C3O)C(O)C2O)c2nc(NCc3ccc(Cl)cc3)[nH]c(=O)c21 (stereo not drawn)
relative inhibitory potency (cap-dependent translation, inhibitor; rabbit reticulocyte lysate; concentration not given; reference: m7GpppG): ~10 fold

CCc1nc2ccc(N(Cc3ccccc3)C(=O)c3cccs3)cc2c(=O)n1Cc1ccc(-c2ccccc2-c2nn[nH]n2)cc1
Ki (Type-2 angiotensin II receptor (AGTR2, Homo sapiens, UniProt P50052, T178A); ligand displacement, radioligand; cell membranes): 2.69 nM

NS(=O)(=O)Nc1ncnc(OCCOc2ncc(Br)cn2)c1-c1ccc(Br)cc1
Vmax (metabolite formation; female Sprague-Dawley rat, liver microsomes; 50 mg/kg daily for 4 weeks): 166 ± 16 pmol/min/mg

For quick reference, copied from above:
CO[C@@H]1[C@H](O)[C@@H](COP(=O)(O)OP(=O)([O-])C(Cl)(Cl)P(=O)(O)OP(=O)(O)OC[C@H]2O[C@@H](n3cnc4c(=O)[nH]c(N)nc43)[C@H](O)[C@@H]2O)O[C@H]1n1c[n+](C)c2c(O)nc(N)nc21
relative translation efficiency (rabbit reticulocyte lysate; 1 h, luciferase mRNA capped with compound; reference: m7GpppG-capped mRNA): 1.71 ± 0.25
